Measured values collected from several papers.
A part holds a random share of what one study measured.

Series 1
Target: Fragile X messenger ribonucleoprotein 1, C-terminal low-complexity region (Fmr1, Mus musculus, UniProt P35922)
Technique: RNA Bind-n-Seq
Form: RNA
Sample: in vitro
Concentration: 200 nM
Notes: whole 134-nt RNA, ends assumed
With: 150 mM LiCl
Baseline: input library
Direction: higher = stronger binding
Endpoint: log2 enrichment
Library: 7-deaza-guanosine replaces G
Constant ends, left off below: GGGAGUUCUACAGUCCGACGAUC … UGGAAUUCUCGGGUGUCAAGG
ACCAUGCAGGUGGGCAUCUUUGGGAAGUAGGGCAAGGGGGGGAUAGGGAGGGGGGUAACACUUUGGGAACAGGUGGUCCCAGGUCGUUUC: 1.43
AAGUCCUGUGCUACACAUCGUAUGUACCGAAUCGGGAAAGGGGAAAGGGGAAAGGGGAAAGUAUUAUGUUACGCCGUUCGGAUCUGCACU: 1.17
GCAGGAAGUAAAAACAAAUGGAAAUGCUUCGGAUAGUGACAGGGGUGGGGGUUGCUAAGGAAAGGGUGGGAUGGGAGUGGGUAAAGAGUU: 1.36
UCUCUUAUGCUAUUGGAGUUUCUCAUCCAUUAUCUAUCUCCAUUUUCCAUUAUGGUACCUCUCAGAAGAGUGAGAGAGAGCUAUUAGAGA: 0.189
AGUUACGGUAGCAGUUCUCAGAGCAGCAGCUAUGGGCAGCCCCAGAGUGGGAGCUACAGCCAGCAGCCUAGCUAUGGUGGACAGCAGCAA: -2.47
UGAACCUUCCAAUAGCAACCAAGAAAUAAACUCUGAUGACAGACGACCCCAAUGGAGACGAGAAGACCGAAUUCCUUACCAAGACAGAGA: 1.09

Series 2
Target: Interferon regulatory factor 3, full length, phosphomimetic (IRF3, Homo sapiens, UniProt Q14653, residues 1-427, S386D/S396D/S398D/S402D/T404D/S405D)
Technique: protein-binding microarray
Form: double-stranded DNA, one strand shown
Sample: in vitro
Concentration: 2540 nM top
Notes: 60-bp whole probe
With: salmon DNA 0.4 mg/ml
Baseline: random background probes
Direction: higher = stronger binding
Endpoint: fitted relative affinity
Constant ends, left off below: GCCTAGCAC … GTCTTGATTCGCTTGACGCTGCTG
Residues (chain): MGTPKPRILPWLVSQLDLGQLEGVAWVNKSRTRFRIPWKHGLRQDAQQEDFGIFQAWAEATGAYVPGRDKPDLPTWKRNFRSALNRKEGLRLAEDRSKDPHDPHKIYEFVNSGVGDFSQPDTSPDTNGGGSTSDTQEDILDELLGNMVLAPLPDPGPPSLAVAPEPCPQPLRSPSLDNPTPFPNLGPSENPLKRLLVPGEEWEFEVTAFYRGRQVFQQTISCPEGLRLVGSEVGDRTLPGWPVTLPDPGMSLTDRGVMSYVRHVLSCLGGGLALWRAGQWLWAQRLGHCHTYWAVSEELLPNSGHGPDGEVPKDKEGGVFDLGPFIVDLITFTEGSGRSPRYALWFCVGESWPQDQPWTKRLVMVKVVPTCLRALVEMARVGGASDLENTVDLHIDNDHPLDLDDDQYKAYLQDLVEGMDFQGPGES
TACGATTTCGGGACTGGAGACGTGCTA: 1.31 z-score
GGGCCAGCAGCCAGGTGGAGGTGCTAG: -1.73 z-score
TTAGATTTAGGGTTTCGATTAGTGCTA: 1.55 z-score
TTAGATATCAGACTGCATTAGTGCTAG: 0.117 z-score
TTAGGTTTCGGACTGGGTAAGTGCTAG: 4.32 z-score
ATTGCTTCCTCTTTCACTGGGTGCTAG: 1.42 z-score
TCCAATTACCTTTTCACTTTGTGCTAG: 4.54 z-score

Series 3
Target: Max-binding protein MNT, bHLH-zipper, MAX partner unstated (MNT, Homo sapiens, UniProt Q99583, residues 220-300)
Technique: protein-binding microarray
Form: double-stranded DNA, one strand shown
Sample: in vitro
Concentration: not given
Notes: k-mer, scored over probes, only values ≥0.25
Direction: higher = stronger binding
Endpoint: E-score
Residues (chain): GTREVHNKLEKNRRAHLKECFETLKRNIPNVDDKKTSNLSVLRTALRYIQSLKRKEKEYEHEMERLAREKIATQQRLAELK
AGCGCGTG: 0.438
CGCGCAAC: 0.266
TAGCACGA: 0.277
CTCATGCC: 0.305
ACGCATGC: 0.444

Further values, each from its own experiment
PhoQ, residues 284 288 289 292 302 303 WVSSAF  fold induction (PhoP, residues 12 14 15 18 19 AYFRS (Escherichia coli, UniProt P23836); Sort-seq, refers to: YFP reporter; E. coli; PhoQ-PhoP variant library, with: 10 µM Mg2+; baseline: high Mg2+ state, higher = stronger signaling): 10.8

Some of these lines once more (series 3):
ACGCATGC: 0.444
